Experimental data gathered from unrelated publications.
Protocols differ between the studies behind these lines. Numbers after ± are the reported error.

SMILES	test system	conditions	Tmax
Cc1cc(NC2Cc3cc(F)c(F)cc3C2)n2nc(C(C)(F)F)nc2n1	NSG mouse, whole blood	oral, 10 mg/kg	8 h
CCOC(=O)C1=C(CN2CCC[C@@H]2C(=O)Nc2ccc(B(O)O)cc2)NC(c2nccs2)=N[C@H]1c1ccc(F)cc1Br	ICR mouse, plasma	intravenous, 2 mg/kg	0.08 h
CC(=O)NCc1cc2c(cc1F)C(=O)N(C1CCC(=O)NC1=O)C2 (stereo not drawn)	male CD-1 mouse, plasma	oral, 10 mg/kg of parent drug	1.3 ± 0.6 h
CN1CCC[C@H](CN2c3ccccc3Sc3ccccc32)C1.Cl	fasted female ICR mouse, eye	oral, 16 mg/kg	2 h
c1csc(CNc2cc[nH]n2)c1	male CD-1 mouse, plasma	oral, 20 mg/kg, hydrochloride salt	0.25 h
FC(F)(F)Oc1ccc(Nc2cc(-c3cn[nH]c3)ncn2)cc1	male BALB/c mouse, plasma	oral, 20 mg/kg	3 h
COc1ccc2nc(-c3ccccn3)c(N(C)c3ccc(F)cc3)n2c1	CD1 mouse, male, fasted, plasma	oral, 50 mg/kg, with: ABT 50 mg/kg	0.25 h
Cc1ncccc1-c1cnc(NCc2c(F)ccc3c2CCO3)n2cnnc12	female CB17 SCID mouse, HT-1376 xenograft, plasma	75 mg/kg, day 1	1 h
Cc1cc(NC2CCc3cc(Cl)ccc3C2)n2nc(C(C)(F)F)nc2n1 (stereo not drawn)	NSG mouse, whole blood	oral, 30 mg/kg	2 h
O=C(O)C[C@H](O)C[C@H](O)/C=C/c1c(C2CC2)nc2ccccc2c1-c1ccc(F)cc1	FVB wild-type mouse, plasma	oral, 5 mg/kg, with: rifampin 20 mg/kg oral	1.4 h
CC(=O)N(C)C1CCN(c2cc(F)cc(NC(=O)c3cc4c(F)ccc(C)c4[nH]3)c2)C1 (stereo not drawn)	CD1 mouse	oral, 50 mg/kg	1.3 h
CN[C@H](CC(C)C)C(=O)N[C@H]1C(=O)N[C@@H](CC(N)=O)C(=O)N[C@H]2C(=O)N[C@H]3C(=O)N[C@H](C(=O)N[C@H](C(=O)O)c4cc(O)cc(O)c4-c4cc3ccc4O)[C@H](O)c3ccc(c(Cl)c3)Oc3cc2cc(c3O[C@@H]2O[C@H](CO)[C@@H](O)[C@H](O)[C@H]2O[C@H]2C[C@](C)(N)[C@H](O)[C@H](C)O2)Oc2ccc(cc2Cl)[C@H]1O	C57BL/6N mouse H2, faeces	po, 0.5 mL, 20 mg/mL solution	20 h
Cc1cc(N[C@H]2CCc3ccc(Cl)cc3C2)n2nc(C(C)(F)F)nc2n1	NSG mouse, whole blood	oral, 10 mg/kg	4 h
CN1CCCC1CCNS(=O)(=O)c1ccc2c(c1)CN(CC1CCCCC1)CC2 (stereo not drawn)	mouse, plasma	oral, 10 mg/kg	1 h
CN1CCN(C(=O)c2cc3c(Nc4ccc(OC(F)(F)F)cc4)ncnc3s2)CC1	male BALB/c mouse, plasma	oral, 20 mg/kg	0.5 h

For quick reference, copied from above:
SMILES	test system	conditions	Tmax
Cc1cc(NC2CCc3cc(Cl)ccc3C2)n2nc(C(C)(F)F)nc2n1 (stereo not drawn)	NSG mouse, whole blood	oral, 30 mg/kg	2 h
O=C(O)C[C@H](O)C[C@H](O)/C=C/c1c(C2CC2)nc2ccccc2c1-c1ccc(F)cc1	FVB wild-type mouse, plasma	oral, 5 mg/kg, with: rifampin 20 mg/kg oral	1.4 h
